Results gathered from unrelated publications.
Each line is one published result; not all experiments were run side by side. Converted amounts (≈) assume the structure as drawn.
4'-phosphopantetheinyl transferase PptT: 4'-phosphopantetheinyl transferase PptT (Mycobacterium tuberculosis, UniProt O33336)
UniProt O33336, sequence (whole entry, looked up): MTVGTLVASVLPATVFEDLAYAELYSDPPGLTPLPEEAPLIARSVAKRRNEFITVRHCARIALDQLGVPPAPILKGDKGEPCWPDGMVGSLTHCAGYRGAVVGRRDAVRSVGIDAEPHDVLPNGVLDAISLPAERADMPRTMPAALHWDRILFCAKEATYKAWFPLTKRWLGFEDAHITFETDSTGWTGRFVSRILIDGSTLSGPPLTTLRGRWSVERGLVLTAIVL
UniProt Q6ZWH5, sequence (whole entry, looked up): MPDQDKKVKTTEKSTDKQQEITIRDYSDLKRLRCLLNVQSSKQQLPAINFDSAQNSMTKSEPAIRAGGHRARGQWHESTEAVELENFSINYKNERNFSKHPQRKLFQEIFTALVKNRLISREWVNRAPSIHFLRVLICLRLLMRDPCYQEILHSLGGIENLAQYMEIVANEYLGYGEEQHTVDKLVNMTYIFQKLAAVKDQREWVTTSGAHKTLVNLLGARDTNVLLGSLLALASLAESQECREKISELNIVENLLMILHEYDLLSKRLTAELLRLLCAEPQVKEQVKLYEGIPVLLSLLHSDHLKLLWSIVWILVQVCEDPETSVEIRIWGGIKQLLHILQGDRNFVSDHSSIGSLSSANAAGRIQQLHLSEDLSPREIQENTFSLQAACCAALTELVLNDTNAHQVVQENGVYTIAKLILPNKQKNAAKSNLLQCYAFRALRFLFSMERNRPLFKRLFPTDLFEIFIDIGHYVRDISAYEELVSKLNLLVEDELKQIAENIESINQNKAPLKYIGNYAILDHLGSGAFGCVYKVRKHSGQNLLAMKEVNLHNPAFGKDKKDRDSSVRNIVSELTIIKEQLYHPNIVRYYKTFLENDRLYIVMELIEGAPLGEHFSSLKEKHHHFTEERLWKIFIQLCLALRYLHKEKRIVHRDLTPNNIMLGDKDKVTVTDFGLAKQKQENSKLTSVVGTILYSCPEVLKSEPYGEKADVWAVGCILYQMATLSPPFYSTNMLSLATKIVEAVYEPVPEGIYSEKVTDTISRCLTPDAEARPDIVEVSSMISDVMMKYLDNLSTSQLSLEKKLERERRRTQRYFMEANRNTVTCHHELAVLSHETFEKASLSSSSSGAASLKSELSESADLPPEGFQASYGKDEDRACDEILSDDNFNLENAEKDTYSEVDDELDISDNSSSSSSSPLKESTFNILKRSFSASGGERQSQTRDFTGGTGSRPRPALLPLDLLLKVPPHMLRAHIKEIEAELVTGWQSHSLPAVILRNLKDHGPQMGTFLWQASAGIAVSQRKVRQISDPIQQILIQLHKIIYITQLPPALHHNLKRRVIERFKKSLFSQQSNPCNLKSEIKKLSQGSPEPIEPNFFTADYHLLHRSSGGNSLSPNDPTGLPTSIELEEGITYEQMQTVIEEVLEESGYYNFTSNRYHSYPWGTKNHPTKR
UniProt Q9NRP7, sequence (whole entry, looked up): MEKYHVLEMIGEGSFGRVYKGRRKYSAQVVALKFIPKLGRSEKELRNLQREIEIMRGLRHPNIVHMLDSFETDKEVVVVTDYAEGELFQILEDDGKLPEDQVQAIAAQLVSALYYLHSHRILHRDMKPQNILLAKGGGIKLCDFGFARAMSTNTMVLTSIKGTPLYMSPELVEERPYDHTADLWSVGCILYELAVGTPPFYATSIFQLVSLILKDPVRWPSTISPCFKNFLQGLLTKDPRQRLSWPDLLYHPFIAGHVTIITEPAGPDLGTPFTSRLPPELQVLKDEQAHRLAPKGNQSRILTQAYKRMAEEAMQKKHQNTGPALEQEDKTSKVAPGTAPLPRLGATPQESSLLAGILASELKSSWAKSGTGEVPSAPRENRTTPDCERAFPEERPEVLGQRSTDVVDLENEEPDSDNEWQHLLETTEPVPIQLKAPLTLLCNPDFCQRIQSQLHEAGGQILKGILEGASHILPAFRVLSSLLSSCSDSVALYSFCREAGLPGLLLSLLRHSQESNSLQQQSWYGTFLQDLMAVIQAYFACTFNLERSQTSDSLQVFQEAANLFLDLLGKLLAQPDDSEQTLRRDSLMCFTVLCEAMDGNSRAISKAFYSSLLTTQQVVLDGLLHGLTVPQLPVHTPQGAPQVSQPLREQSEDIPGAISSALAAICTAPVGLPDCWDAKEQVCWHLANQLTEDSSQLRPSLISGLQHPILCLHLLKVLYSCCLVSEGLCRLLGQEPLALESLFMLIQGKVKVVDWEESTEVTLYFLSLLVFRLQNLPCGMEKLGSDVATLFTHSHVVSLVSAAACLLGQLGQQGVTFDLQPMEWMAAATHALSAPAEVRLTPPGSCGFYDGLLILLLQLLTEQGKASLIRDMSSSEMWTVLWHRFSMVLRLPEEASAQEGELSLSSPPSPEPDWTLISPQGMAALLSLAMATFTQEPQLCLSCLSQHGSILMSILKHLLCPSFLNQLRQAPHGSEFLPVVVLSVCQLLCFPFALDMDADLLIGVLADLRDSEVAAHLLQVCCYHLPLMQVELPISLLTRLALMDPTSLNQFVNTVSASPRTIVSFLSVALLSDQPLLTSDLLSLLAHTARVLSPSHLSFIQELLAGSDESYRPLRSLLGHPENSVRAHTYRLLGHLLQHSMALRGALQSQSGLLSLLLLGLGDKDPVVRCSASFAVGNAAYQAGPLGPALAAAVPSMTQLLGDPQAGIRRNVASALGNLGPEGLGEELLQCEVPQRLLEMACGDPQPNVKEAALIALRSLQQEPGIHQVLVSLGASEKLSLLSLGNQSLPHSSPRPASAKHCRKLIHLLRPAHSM
UniProt Q8NG66, sequence (whole entry, looked up): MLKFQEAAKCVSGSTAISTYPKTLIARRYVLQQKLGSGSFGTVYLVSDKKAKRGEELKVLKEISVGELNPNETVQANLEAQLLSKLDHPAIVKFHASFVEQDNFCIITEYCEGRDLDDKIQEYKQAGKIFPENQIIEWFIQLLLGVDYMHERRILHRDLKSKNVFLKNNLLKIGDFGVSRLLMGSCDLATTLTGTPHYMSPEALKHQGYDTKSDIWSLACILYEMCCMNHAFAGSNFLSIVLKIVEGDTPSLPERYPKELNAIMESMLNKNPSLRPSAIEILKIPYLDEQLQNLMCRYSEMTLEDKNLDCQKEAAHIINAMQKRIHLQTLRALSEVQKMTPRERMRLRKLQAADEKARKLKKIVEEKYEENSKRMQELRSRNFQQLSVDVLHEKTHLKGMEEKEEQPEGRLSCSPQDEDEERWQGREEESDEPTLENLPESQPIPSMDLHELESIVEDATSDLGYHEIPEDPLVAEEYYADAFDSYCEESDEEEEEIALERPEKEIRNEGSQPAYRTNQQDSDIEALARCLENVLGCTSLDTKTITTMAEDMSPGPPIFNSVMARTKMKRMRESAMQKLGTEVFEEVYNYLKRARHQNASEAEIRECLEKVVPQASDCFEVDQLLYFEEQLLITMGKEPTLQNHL
UniProt Q12852, sequence (whole entry, looked up): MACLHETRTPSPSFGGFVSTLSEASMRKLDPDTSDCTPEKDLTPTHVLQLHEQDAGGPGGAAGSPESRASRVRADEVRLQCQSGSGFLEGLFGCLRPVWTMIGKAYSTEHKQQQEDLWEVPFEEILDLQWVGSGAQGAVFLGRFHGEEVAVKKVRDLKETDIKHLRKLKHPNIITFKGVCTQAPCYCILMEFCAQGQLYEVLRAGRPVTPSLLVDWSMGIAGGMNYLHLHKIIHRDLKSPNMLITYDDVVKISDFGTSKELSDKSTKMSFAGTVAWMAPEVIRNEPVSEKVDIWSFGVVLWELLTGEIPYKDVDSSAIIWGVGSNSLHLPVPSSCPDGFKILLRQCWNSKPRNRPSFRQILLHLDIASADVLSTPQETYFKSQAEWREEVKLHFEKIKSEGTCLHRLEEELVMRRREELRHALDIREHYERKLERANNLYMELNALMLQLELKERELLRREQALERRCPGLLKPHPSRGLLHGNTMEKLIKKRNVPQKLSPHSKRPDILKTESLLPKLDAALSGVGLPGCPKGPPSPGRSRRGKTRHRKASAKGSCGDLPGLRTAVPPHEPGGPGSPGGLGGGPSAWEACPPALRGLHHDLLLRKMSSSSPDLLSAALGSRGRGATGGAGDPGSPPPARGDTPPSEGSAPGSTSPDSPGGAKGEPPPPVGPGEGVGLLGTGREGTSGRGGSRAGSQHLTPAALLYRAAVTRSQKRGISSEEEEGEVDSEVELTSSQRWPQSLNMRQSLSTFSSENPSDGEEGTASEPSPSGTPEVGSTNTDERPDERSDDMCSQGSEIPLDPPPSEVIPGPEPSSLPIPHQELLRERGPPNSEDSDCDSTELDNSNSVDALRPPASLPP

The MIC of COC(=O)c1cc(-c2cccc(NC(=S)Nc3cccc(Br)c3)c2)on1 is reported as over 64 µg/mL (Escherichia coli; microbial growth, broth dilution; ATCC25922).
The viability of Cc1sc2c(c1C)C(c1ccc(Cl)cc1)=N[C@@H](CC(=O)OC(C)(C)C)c1nnc(C)n1-2 is reported as 21.3% (OCI-Ly1; cell growth or viability, ATP luminescence; 1 µM, 5 days).
CCc1ccccc1C=Nc1ccc(SCc2cc(=O)c(O)co2)cc1 gave an IC50 of 35.6 µM (ABTS scavenging, absorbance).
Cc1nn(C)cc1-c1nc2c(N3CCN(Cc4ccc(Cl)cc4)CC3)c(Cl)cnc2[nH]1 gave a remaining binding of 81% (Mitogen-activated protein kinase kinase kinase 12 (MAP3K12, Homo sapiens, UniProt Q12852); binding, competition with immobilised ligand; 1 µM).
COc1cccc(C=Nc2ccc(SCc3cc(=O)c(O)co3)cc2)c1 gave an IC50 of 21.3 µM (ABTS scavenging, absorbance).
With O=C(NNc1cccc(Cl)c1)c1nnc(CC23CC4CC(CC(C4)C2)C3)o1 the inhibition was 56.3% (Fusarium oxysporum; microbial growth; 50 µg/mL).
COc1ccc(Nc2nn3c(-c4ccccc4)ccnc3c2C(=O)Nc2ccccc2)cc1 has a viability of 75.7% (Caco-2; cell growth or viability, MTT; 12.5 µg/mL, 48 h, serum-free).
For N.N.[Cl][Pt][Cl], the inhibition was 100% (SU-DHL-5; cell growth or viability, ATP luminescence; 10 µM, 72 h).
The MIC of COC(=O)c1cc(-c2ccc(OC)c(NC(=O)Nc3ccc(Cl)c(Cl)c3)c2)on1 is reported as over 64 µg/mL (Acinetobacter baumannii; microbial growth, broth dilution; BAA1605).
COC1=CC2=[N+](C)CCc3c[nH]c(c32)C1=O has an IC50 of 10.2 µM (Babesia duncani; parasite growth, SYBR Green; 60 h, blood stage).
Nc1ncc(-c2nc(N3CCOCC3)nc(N3CCOCC3)n2)c(C(F)F)n1 has a remaining binding of 89% (Serine/threonine-protein kinase Nek11 (NEK11, Homo sapiens, UniProt Q8NG66); binding, competition with immobilised ligand; 10 µM).
COc1ccc(Nc2nn3c(-c4ccccc4)ccnc3c2C(=O)Nc2ccc(Cl)cc2)cc1 gave a viability of 40.4% (Caco-2; cell growth or viability, MTT; 12.5 µg/mL, 48 h, serum-free).
O=C(NNc1ccc(Cl)c(Cl)c1)c1nnc(C23CC4CC(CC(C4)C2)C3)o1 gave an inhibition of 45.1% (Pyricularia grisea; microbial growth; 50 µg/mL).
For COc1ncccc1-c1cnn2ccc(N3CCN(C(=O)OC(C)C)CC3)nc12, the remaining binding was 66% (Serine/threonine-protein kinase Nek10 (NEK10, Homo sapiens, UniProt Q6ZWH5); binding, competition with immobilised ligand; 1 µM).
CN(C)c1ccc(C(=O)NCCCCCCC(=O)NO)cc1 gave a viability of 7.65% (HBL1; cell growth or viability, ATP luminescence; 1 µM, 5 days).
For C[C@@H](O)[C@@H]1NC(=O)[C@H](CCCNC(=N)N)NC(=O)[C@@H](Cc2ccccc2)NC(=O)[C@H](Cc2ccccc2)NC(=O)CNC1=O, the IC90 was over 16 µg/mL (Balamuthia mandrillaris; parasite growth, ATP luminescence).
With CC(C)(C)c1ccc(C=Nc2ccc(SCc3cc(=O)c(O)co3)cc2)cc1 the IC50 was 9.65 µM (ABTS scavenging, absorbance).
CC(C)[C@@H]1NC(=O)[C@@H](CC(N)=O)NC(=O)[C@H](CCCN)NC(=O)[C@@H](CC(N)=O)NC(=O)[C@H](CCCCN)NC(=O)[C@H](C(C)C)NC(=O)[C@@H](C(C)C)NC(=O)[C@@H](C(C)C)NC(=O)[C@@H](C(C)C)NC1=O gave an IC90 of over 16 µg/mL (Balamuthia mandrillaris; parasite growth, ATP luminescence).
For Cn1cc2c3c1C(=O)C(N)=CC3=NCC2, the IC50 was 2.8 µM (Babesia duncani; parasite growth, SYBR Green; 60 h, blood stage).
With COC(=O)c1cc2[nH]c(=S)n(Cc3cccnc3)c(=O)c2cc1Cl the IC50 was 2.9 µM (4'-phosphopantetheinyl transferase PptT; enzyme activity, inhibitor, FP).
The inhibition of CO/C=C(/C(=O)OC)c1ccccc1Oc1cc(Oc2ccccc2C#N)ncn1 is reported as 46.4% (Pyricularia grisea; microbial growth; 50 µg/mL).
With COC(=O)c1cc(-c2cccc(NC(=S)Nc3cccc(Cl)c3)c2)on1 the MIC was over 64 µg/mL (Mycobacteroides abscessus; microbial growth, broth dilution; ATCC19977; 48 h).
Cn1cc2c3c1C(=O)C(N)=CC3=[N+](C)CC2 gave an IC50 of 2.6 µM (Babesia duncani; parasite growth, SYBR Green; 60 h, blood stage).
The MIC of OC(Cn1cncn1)(Cn1cncn1)c1ccc(F)cc1F is reported as 16 µg/mL (≈ 52.2 µM) (Pichia kudriavzevii; microbial growth, broth dilution; ATCC34135).
With CC(C)[C@@H]1NC(=O)[C@@H](CCCCN)NC(=O)[C@H]([C@@H](C)O)NC(=O)[C@@H](CCCCN)NC(=O)[C@H](Cc2c[nH]c3ccccc23)NC(=O)[C@@H](C)NC(=O)[C@@H](C(C)C)NC(=O)[C@@H](C)NC(=O)[C@H](Cc2c[nH]c3ccccc23)NC(=O)[C@@H](Cc2c[nH]c3ccccc23)NC1=O the IC90 was 13.7 µg/mL (≈ 10.9 µM) (Balamuthia mandrillaris; parasite growth, ATP luminescence).
With COC(=O)c1cc(-c2cccc(NC(=O)Nc3ccc(Cl)cc3)c2)on1 the MIC was over 64 µg/mL (Escherichia coli; microbial growth, broth dilution; ATCC25922).
O=c1cc(CSc2ccc(N=Cc3ccc([N+](=O)[O-])cc3)cc2)occ1O gave an IC50 of 56.1 µM (ABTS scavenging, absorbance).
CC(C)[C@H]1NC(=O)[C@@H](C)NC(=O)[C@H](Cc2c[nH]c3ccccc23)NC(=O)[C@@H](CCCN)NC(=O)[C@H]([C@@H](C)O)NC(=O)[C@@H](CCCN)NC(=O)[C@H](Cc2c[nH]c3ccccc23)NC(=O)[C@@H](C)NC1=O gave an IC50 of over 16 µg/mL (Balamuthia mandrillaris; parasite growth, ATP luminescence).
Cc1ccc(NNC(=O)c2nnc(CC34CC5CC(CC(C5)C3)C4)o2)cc1 has an inhibition of 41.7% (Pyricularia grisea; microbial growth; 50 µg/mL).
With C[C@@H](O)[C@@H]1NC(=O)[C@H](Cc2ccccc2)NC(=O)[C@@H](Cc2ccccc2)NC(=O)[C@H](Cc2ccccc2)NC(=O)[C@@H](CCCN)NC(=O)[C@H](CCCCN)NC(=O)[C@@H](CCCCN)NC1=O the IC90 was over 16 µg/mL (Balamuthia mandrillaris; parasite growth, ATP luminescence).
For O=C(NCCc1ncc(C(F)(F)F)cc1Cl)c1ccccc1C(F)(F)F, the EC50 was over 50 µg/mL (Pyricularia grisea; microbial growth).
C[C@@H](O)[C@@H]1NC(=O)[C@H](Cc2ccccc2)NC(=O)[C@@H](Cc2ccccc2)NC(=O)[C@H]([C@@H](C)O)NC(=O)[C@@H](CCCN)NC(=O)[C@H](CCCN)NC(=O)[C@@H](CCCCN)NC1=O gave an IC90 of over 16 µg/mL (Balamuthia mandrillaris; parasite growth, ATP luminescence).
O=C(NNc1ccc(Cl)c(Cl)c1)c1nnc(CC23CC4CC(CC(C4)C2)C3)o1 has an inhibition of 75.1% (Pyricularia grisea; microbial growth; 50 µg/mL).
CC(C)[C@H]1NC(=O)[C@H](Cc2ccccc2)NC(=O)CNC(=O)[C@@H](Cc2ccccc2)NC(=O)[C@H](CCCCN)NC(=O)[C@@H](CCCNC(=N)N)NC1=O gave an IC90 of over 16 µg/mL (Balamuthia mandrillaris; parasite growth, ATP luminescence).
[2H]c1c([2H])c([C@]2([2H])CCCN2C(=O)C(C)(C)Oc2ccc3cn[nH]c3c2)c([2H])c([2H])c1C([2H])([2H])[2H] has a remaining binding of 100% (Serine/threonine-protein kinase 36 (STK36, Homo sapiens, UniProt Q9NRP7); binding, competition with immobilised ligand; 1 µM).
The IC50 of CC(c1cccnc1)n1c(=S)[nH]c2cc(CO)c(Cl)cc2c1=O (stereo not shown) is reported as 7.51 µM (4'-phosphopantetheinyl transferase PptT; enzyme activity, inhibitor, FP).
The IC50 of C[C@H]1NC(=O)[C@H](Cc2ccccc2)NC(=O)[C@@H](Cc2ccccc2)NC(=O)[C@H](Cc2ccccc2)NC(=O)[C@@H](CCCN)NC(=O)[C@H](CCCN)NC1=O is reported as 10.2 µM (Balamuthia mandrillaris; parasite growth, ATP luminescence).
